{"data": "Assay results collected from several papers", "target": "Histone deacetylase 7 (HDAC7, Homo sapiens, UniProt Q8WUI4)", "mode": "inhibitor", "One construct used (Q8WUI4 1-952)": "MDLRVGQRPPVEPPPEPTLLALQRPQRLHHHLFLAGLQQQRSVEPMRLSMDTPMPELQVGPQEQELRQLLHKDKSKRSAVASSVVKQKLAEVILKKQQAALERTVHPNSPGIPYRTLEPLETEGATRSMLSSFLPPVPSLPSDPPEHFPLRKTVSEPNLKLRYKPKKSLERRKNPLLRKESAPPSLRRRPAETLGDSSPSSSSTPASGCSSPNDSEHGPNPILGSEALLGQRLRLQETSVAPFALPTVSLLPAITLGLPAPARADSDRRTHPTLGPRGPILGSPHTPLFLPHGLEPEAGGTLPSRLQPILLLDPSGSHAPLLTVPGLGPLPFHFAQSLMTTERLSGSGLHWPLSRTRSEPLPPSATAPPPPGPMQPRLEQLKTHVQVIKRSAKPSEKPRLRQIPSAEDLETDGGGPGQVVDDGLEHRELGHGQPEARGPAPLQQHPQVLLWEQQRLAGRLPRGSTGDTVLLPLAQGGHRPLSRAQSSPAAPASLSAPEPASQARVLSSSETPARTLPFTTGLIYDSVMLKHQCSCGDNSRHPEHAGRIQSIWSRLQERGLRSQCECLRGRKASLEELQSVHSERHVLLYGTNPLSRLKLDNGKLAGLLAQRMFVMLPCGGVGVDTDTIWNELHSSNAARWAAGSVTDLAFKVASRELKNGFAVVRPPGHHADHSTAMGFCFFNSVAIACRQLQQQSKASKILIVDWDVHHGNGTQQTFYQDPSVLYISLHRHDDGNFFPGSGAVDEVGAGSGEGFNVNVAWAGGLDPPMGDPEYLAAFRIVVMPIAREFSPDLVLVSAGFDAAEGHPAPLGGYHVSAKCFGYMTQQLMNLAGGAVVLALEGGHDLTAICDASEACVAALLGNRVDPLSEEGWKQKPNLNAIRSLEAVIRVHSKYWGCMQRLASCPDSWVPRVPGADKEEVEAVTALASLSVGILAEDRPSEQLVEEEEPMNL", "note": "Each line is one published result; not all experiments were run side by side. ± marks the error that the study gave."}
{"SMILES": "O=c1c2ccccc2sn1Cc1ccccc1", "assay": "enzyme activity", "IC50": "6.08 µM"}
{"SMILES": "O=C(NO)c1ccc(CN2c3ccccc3Oc3ccc(C(=O)Nc4ccc(C(=O)c5ccccc5)cc4)cc32)cc1", "assay": "enzyme activity", "IC50": "1.51 ± 0.15 µM"}
{"SMILES": "Cc1ncc2c(n1)CN(C(=O)Nc1nc(-c3cccs3)ccc1N)C2", "assay": "deacetylase activity, recombinant enzyme", "IC50": "> 30 µM"}
{"SMILES": "COC(=O)c1ccc(Cn2sc3ccccc3c2=O)cc1", "assay": "enzyme activity", "IC50": "8.79 µM"}
{"SMILES": "O=C1CCC(N2C(=O)c3ccc(N4CCC(C(=O)N5CCC(CCN6CCC(CNC(=O)c7cccc(-c8noc(C(F)(F)F)n8)c7)(c7nc(-c8ccccc8)cs7)CC6)CC5)CC4)cc3C2=O)C(=O)N1 (stereo not drawn)", "assay": "enzyme activity", "IC50": "2.4 µM"}
{"SMILES": "Cn1cc2c(n1)CN(C(=O)Nc1nc(-c3ccc(F)cc3)ccc1N)C2", "assay": "deacetylase activity, recombinant enzyme", "IC50": "> 30 µM"}
{"SMILES": "N/C(=N\\O)c1ccc2c(c1)Oc1ccccc1N2Cc1cccc(C(=O)NO)c1", "assay": "enzyme activity", "IC50": "21.7 µM"}
{"SMILES": "O=C(O)c1ccc(Cn2sc3ccccc3c2=O)cc1", "assay": "enzyme activity", "IC50": "4.1 µM"}
{"SMILES": "COCCn1cc2c(n1)CN(C(=O)Nc1nc(-c3ccc(F)cc3F)ccc1N)C2", "assay": "deacetylase activity, recombinant enzyme", "IC50": "> 30 µM"}
{"note": "For quick reference, copied from above:"}
{"SMILES": "N/C(=N\\O)c1ccc2c(c1)Oc1ccccc1N2Cc1cccc(C(=O)NO)c1", "assay": "enzyme activity", "IC50": "21.7 µM"}
